Published values collected from several papers.
Numbered parts are unrelated; each lists some results of a single study. Changes are numbered by the printed parent chain.

Study 1 — technique: DHFR PCA, deep sequencing; medium: yeast; added: (+)-ABA 710 µM; baseline: wild-type fitted maximum; reading: higher = stronger binding
Target: ABI1, truncated, D143A, DHFR fusion (Arabidopsis thaliana)
Notes: methotrexate growth selection, single substitutions
Starting sequence: PYL1, truncated, DHFR fusion (Arabidopsis thaliana); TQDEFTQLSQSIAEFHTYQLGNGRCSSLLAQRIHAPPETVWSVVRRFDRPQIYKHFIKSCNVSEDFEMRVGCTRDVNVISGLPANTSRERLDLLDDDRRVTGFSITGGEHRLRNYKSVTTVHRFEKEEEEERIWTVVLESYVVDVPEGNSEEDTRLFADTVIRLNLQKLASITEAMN; partner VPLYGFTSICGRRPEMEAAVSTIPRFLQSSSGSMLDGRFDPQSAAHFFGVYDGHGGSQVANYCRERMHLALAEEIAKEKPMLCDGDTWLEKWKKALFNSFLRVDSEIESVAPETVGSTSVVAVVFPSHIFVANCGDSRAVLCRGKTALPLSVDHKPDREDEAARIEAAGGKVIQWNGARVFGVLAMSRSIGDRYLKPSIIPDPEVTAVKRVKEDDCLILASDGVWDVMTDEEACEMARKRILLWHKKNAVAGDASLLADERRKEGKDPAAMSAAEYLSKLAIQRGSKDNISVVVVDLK
For `N61G`, “relative binding score” read 94.4%.
Under “relative binding score”, `Q10R` is recorded as 102%.
`A170T`: “relative binding score” 93.6%.
For `D92G`, “relative binding score” read 62.4%.
`D48K` — result for “relative binding score”: 62.1%.
`A30S`: “relative binding score” 105%.
For `S11R`, “relative binding score” read 97.7%.
`T119K`: “relative binding score” 59.5%.

Study 2 — technique: RNA Bind-n-Seq; form: RNA; medium: in vitro; concentration: 365 nM; baseline: no-protein control; reading: higher = stronger binding
Target: RNA binding protein fox-1 homolog 2, RRM domain, GST-SBP tag (RBFOX2, Homo sapiens, UniProt O43251-10, residues 100-194)
Notes: natural RNA segment, single round, ends assumed
Target sequence (chain): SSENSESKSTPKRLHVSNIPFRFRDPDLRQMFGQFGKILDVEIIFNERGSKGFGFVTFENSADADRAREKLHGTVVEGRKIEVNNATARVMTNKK
`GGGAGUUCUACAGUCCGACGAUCAAAGGUUUCCAGGACUGAAACUUUGAUUUUCCGGGAUAUGUUAAAUGGUACAGCCACUAAGUAUCACCAGAAAACCAGAAGCCCAGGAUCUUCUGCCUCCGCCAGCCUGUUGGAAUUCUCGGGUGCCAA` — result for “RBNS enrichment (R)”: 0.321.
For `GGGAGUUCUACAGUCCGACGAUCCCACCACAACCAUGAGCCUUUCUUCAGUUUGCUCGGGUUGACGCGGGCUGCAGAGCAGCGUCUAGUGGACAUUCCGAGGCCAGCUCUUGGGACUGUGUAGCCUCUGCCUCUGGAAUUCUCGGGUGCCAA`, “RBNS enrichment (R)” read 0.274.
Under “RBNS enrichment (R)”, `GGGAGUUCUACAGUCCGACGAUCGGUGGCAUGGGACUUUUUGUCCUUGGACACAAACCUGCAGAUCCUAGGAGUAAUAGUUUCCCCCAAGGACAGCCCAGCCCAUGGACCACUUCUUCCUCAGUGGAGAUACCUGGAAUUCUCGGGUGCCAA` is recorded as 0.358.
For `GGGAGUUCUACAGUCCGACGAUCGUUCAUGAAACUAGAAAUGUCAUCCUGCUUGAUUUUUCAUCAGCCAAGUUAAACCCCUGCUUUCUGUCCUUUGCACCUUUUGCGUGAACAGAAUAUGCAUUAUUAAAGCAUGGAAUUCUCGGGUGCCAA`, “RBNS enrichment (R)” read 1.05.
`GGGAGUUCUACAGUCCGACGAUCCAGAAGUUUGAAUCAGAGGUCUGAGUGACCUCUUUUGUGGCUGUUCUUGAUGGUUUCCAGGCCUCGUUAUGCAUGGUUUGCUUGAUGCCCAUUUUUUGUGCCUUGUGCUGUGGAAUUCUCGGGUGCCAA`: “RBNS enrichment (R)” 18.1.
`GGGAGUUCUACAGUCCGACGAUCCAAAUGAAAAGCAAUUUUUGAGACUGAAUCUGUUGCUAUUUUAAAGGUUAUUGUGGGAAACUGAGCUAAAGGAGUUAGCAUCUUUAUUUUUGUAUCAAAAAUAAAGGUUAUGGAAUUCUCGGGUGCCAA` — result for “RBNS enrichment (R)”: 0.852.
Under “RBNS enrichment (R)”, `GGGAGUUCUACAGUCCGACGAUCGUUUGAGGAGGUAGAGAUAUGUGUAUCCAUAGGAAGAGAUCUGUCAGAACAGGCAGCUGUUGAGCUCGGGGUGUCUUCCCCAAGGCAUGUGGCUCAGCAGCAAGAAAGGCUGGAAUUCUCGGGUGCCAA` is recorded as 5.4.
Under “RBNS enrichment (R)”, `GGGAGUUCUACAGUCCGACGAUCCCUGCCGUACAUGGACAUCUGUUCAACGACUCAUAUUUCAACUGUACCCGAGAGGCUAGCUAUUUAAGGGAACACAGAGGUAAAUUCUUUUGUAAAGAAUCCUUUUGUAAUGGAAUUCUCGGGUGCCAA` is recorded as 0.319.

Study 3 — technique: RNA Bind-n-Seq; form: RNA; medium: in vitro; concentration: 1 µM; notes: whole 134-nt RNA, ends assumed; added: 150 mM KCl; baseline: input library; reading: higher = stronger binding
Target: Ras GTPase-activating protein-binding protein 1, C-terminal RGG region (G3BP1, Homo sapiens, UniProt Q13283)
UniProt Q13283, sequence (whole entry, looked up): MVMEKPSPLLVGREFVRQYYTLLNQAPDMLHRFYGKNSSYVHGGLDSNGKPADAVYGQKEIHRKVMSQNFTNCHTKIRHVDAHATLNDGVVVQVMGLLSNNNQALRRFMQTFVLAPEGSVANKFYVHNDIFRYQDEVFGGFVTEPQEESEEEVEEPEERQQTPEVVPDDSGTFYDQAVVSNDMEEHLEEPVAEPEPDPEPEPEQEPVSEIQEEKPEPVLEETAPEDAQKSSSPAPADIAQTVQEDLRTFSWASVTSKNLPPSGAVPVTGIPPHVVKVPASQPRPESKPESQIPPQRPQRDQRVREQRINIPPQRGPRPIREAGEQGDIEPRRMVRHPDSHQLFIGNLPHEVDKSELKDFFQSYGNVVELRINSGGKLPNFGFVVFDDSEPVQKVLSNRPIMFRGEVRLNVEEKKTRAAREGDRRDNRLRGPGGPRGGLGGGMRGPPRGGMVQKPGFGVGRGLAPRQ
The log2 enrichment of `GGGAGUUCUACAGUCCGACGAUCCCUGUGCUACACAUCGUAUGUACCGAAUCGGGGAAAAAAAGGAAAAAAAGGAAAAAAAGGGAAAGUAUUAUGUUACGCCGUUCGGAUCUGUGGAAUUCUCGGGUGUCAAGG` is reported as -1.81.
The log2 enrichment of `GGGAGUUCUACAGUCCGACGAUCCUCAAGUCCUGUGCUACACAUCGUAUGUACCGAAUCGGGGCCGGCCGGGGCCGGAAAGUAUUAUGUUACGCCGUUCGGAUCUGCACUUCCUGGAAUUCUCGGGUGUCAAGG` is reported as -1.21.
The log2 enrichment of `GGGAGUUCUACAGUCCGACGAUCGCAGGAAGUAAAAACAAAUGGAAAUGCUUCGGAUAGUGGCAGGGGUGGGGGUUGCUAACGAAAGGGUGGGAUGGGAGUGGGUAAAGAGUUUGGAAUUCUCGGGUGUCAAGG` is reported as 1.72.
The log2 enrichment of `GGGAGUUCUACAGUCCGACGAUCUCAAGUCCUGUGCUACACAUCGUAUGUACCGAAUCGGGAAAGGGUUUGGGUGGGAAAGUAUUAUGUUACGCCGUUCGGAUCUGCACUUCCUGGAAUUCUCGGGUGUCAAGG` is reported as 1.78.
For `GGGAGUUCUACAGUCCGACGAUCUCAUCCUUUUUAAAUUUUUUUUUUUUUUUUGAGACGGUCUCACUCUCACCCAGGCUGGAUUGCAGUGGUGUGAUCUCGACCAACUGCAACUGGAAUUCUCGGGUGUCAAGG`, the log2 enrichment was -1.57.
`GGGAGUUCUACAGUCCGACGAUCUCCUCCCUGGCUUCAGCCAGUCCCUGACGCUGAGCACUGGCUUCCGAGUCAUCAAGAAGAAGCUGUACAGCUCGGAACAGCUGCUCAUUGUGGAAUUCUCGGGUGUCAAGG` has a log2 enrichment of -1.3.
The log2 enrichment of `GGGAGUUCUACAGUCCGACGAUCUCCUGUGCUACACAUCGUAUGUACCGAAUCAAACCCCCAAACCCCCCCAAAUUUUUAAAAAAGUAUUAUGUUACGCCGUUCGGAUCUGCAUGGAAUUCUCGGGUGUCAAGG` is reported as -0.527.
The log2 enrichment of `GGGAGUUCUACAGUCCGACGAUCGUCCUGUGCUACACAUCGUAUGUACCGAAUCAAAGUGUGUGUGUGUGUGUGUGUGAAAAAAGUAUUAUGUUACGCCGUUCGGAUCUGCACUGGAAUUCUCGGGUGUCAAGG` is reported as 1.07.
With `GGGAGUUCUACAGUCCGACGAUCCUCAAGUCCUGUGCUACACAUCGUAUGUACCGAAUCGGUUUGGAAAGGAAAGGAAAGUAUUAUGUUACGCCGUUCGGAUCUGCACUUCCAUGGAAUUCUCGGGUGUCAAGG` the log2 enrichment was -1.2.

Mixed results
For `PhoQ, residues 284 288 289 292 302 303 NSMLDC`, the fold induction was 8.56 (PhoP, residues 12 14 15 18 19 QYCSL (Escherichia coli, UniProt P23836); Sort-seq, measured: YFP reporter; E. coli; PhoQ-PhoP variant library, added: 10 µM Mg2+; baseline: high Mg2+ state, higher = stronger signaling).

Some of these lines once more (study 3):
The log2 enrichment of `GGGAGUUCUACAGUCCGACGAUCGUCCUGUGCUACACAUCGUAUGUACCGAAUCAAAGUGUGUGUGUGUGUGUGUGUGAAAAAAGUAUUAUGUUACGCCGUUCGGAUCUGCACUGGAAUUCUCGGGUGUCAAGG` is reported as 1.07.
`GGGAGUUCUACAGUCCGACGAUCUCCUCCCUGGCUUCAGCCAGUCCCUGACGCUGAGCACUGGCUUCCGAGUCAUCAAGAAGAAGCUGUACAGCUCGGAACAGCUGCUCAUUGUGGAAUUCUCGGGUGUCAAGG` has a log2 enrichment of -1.3.
The log2 enrichment of `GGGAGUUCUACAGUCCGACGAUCGCAGGAAGUAAAAACAAAUGGAAAUGCUUCGGAUAGUGGCAGGGGUGGGGGUUGCUAACGAAAGGGUGGGAUGGGAGUGGGUAAAGAGUUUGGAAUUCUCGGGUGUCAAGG` is reported as 1.72.
